Assay results gathered from unrelated publications.
Each numbered part is a random draw from the data of one study; scales do not carry over between parts.

Block 1
Target: Centromere-binding protein 1, full length, N-terminal tag (CBF1, Saccharomyces cerevisiae, UniProt P17106, residues 1-351)
Sequence of UniProt P17106 (whole entry, looked up): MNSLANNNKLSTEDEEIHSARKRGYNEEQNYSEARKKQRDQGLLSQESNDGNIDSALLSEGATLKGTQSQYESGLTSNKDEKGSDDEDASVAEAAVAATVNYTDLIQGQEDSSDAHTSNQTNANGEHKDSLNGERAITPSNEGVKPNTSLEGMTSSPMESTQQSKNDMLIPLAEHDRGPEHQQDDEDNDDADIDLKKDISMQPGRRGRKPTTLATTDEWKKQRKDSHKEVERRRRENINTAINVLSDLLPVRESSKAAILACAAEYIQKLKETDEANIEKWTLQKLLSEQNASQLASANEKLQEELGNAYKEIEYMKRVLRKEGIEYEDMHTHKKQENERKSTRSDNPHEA
Technique: protein-binding microarray
Molecule type: double-stranded DNA, one strand shown
Matrix: in vitro
Tested at: 0.8 µM
Setting: whole 60-bp probe, no competitor
Reading: higher = stronger binding
For `TGTACGAAGCTATACCACGTGACTATAGTAGTTAGGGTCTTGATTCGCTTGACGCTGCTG`, the fluorescence intensity was 17900 a.u.
With `GAAAGGCGATATGATGGTGATGGTGACGGTGATTAGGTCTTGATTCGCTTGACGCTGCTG` the fluorescence intensity was 552 a.u.
With `CTATTCTATAGGCATCACCTACTGCATCACCTATTCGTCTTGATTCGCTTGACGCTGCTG` the fluorescence intensity was 539 a.u.
`GAACGGGTAATAGTACACGGGATGAAGAGACTTTAGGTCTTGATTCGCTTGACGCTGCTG` gave a fluorescence intensity of 662 a.u.
For `CTAAATATTCTGCATCGCGTGGAACCCATGGAATTCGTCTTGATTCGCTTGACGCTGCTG`, the fluorescence intensity was 530 a.u.
`CTAAATGATTCGTATCACATGTTTTTCTATCGTTTCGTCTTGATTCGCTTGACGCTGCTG` has a fluorescence intensity of 2540 a.u.
The fluorescence intensity of `GAATCTTTATGTAATTACGTGTGATACCTCCGATAGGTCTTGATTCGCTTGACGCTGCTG` is reported as 527 a.u.
With `CTAAATTAATAGTGACATGTGTTGCTATGGTAATTCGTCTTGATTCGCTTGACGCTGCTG` the fluorescence intensity was 727 a.u.
The fluorescence intensity of `CTAATCACGTTATCGTACGTGACCGAATGCCGTTTCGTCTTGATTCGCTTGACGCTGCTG` is reported as 3140 a.u.
`CTACAAGGGCATTGTCATGTGCACGCATAATAATTCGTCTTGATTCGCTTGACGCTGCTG` gave a fluorescence intensity of 1670 a.u.
`GAAGAGAAAAAGTTGCGTGCGTCACTGCCCACGTAGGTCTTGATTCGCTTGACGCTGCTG` gave a fluorescence intensity of 542 a.u.
For `GAATAATGGTTTATGCACGTGAATATCACGTGATAGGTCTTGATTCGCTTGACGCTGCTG`, the fluorescence intensity was 27300 a.u.
The fluorescence intensity of `CTACGCTTAGGCATAATGGTGGTGCATTCTTTTTTCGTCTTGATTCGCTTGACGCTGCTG` is reported as 524 a.u.
`CTAGCCAGTTTGTTTCACGTAATTGGTAACGATTTCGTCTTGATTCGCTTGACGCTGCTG` has a fluorescence intensity of 536 a.u.
`CTATTTCCTATCTTCTACCTGATGTGTGCATGATTCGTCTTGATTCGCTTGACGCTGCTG` has a fluorescence intensity of 632 a.u.
`CTATATATTACCCTGAACGTGGTGAATTGAAGTTTCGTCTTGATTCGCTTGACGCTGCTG` gave a fluorescence intensity of 580 a.u.

Block 2
Target: Prothrombin, mature alpha-thrombin (F2, Homo sapiens, UniProt P00734)
Technique: aptamer microarray, sandwich
Molecule type: DNA with 2'F-ANA
Matrix: in vitro
Tested at: 200 nM
Setting: whole 15-mer aptamer, many near background
Together with: Cy3 exosite-II aptamer, 400 nM
Reading: higher = stronger binding
Oligonucleotide: GGTTGGTGTGGTTGG
`2'F-ANA at 2 3 5 7 9 11 13` — result for “mean fluorescence intensity”: 72.5 a.u.
`2'F-ANA at 2 5 9 11 12 13` — result for “mean fluorescence intensity”: 97.1 a.u.
For `2'F-ANA at 1 4 8 9 11 12`, “mean fluorescence intensity” read 234 a.u.
`2'F-ANA at 2 3 5 6 8 9 12 15` — result for “mean fluorescence intensity”: 201 a.u.
Under “mean fluorescence intensity”, `2'F-ANA at 4 5 6 7 9 10 11 13 14` is recorded as 43.1 a.u.
`2'F-ANA at 1 2 4 5 8 9 10 11 13 14 15` — result for “mean fluorescence intensity”: 52.9 a.u.
`2'F-ANA at 1 2 3 4 5 6 7 8 9 10 11 12 14 15`: “mean fluorescence intensity” 49.7 a.u.
`2'F-ANA at 2 3 4 5 14 15` — result for “mean fluorescence intensity”: 54.6 a.u.
`2'F-ANA at 4 7 8 9 12 13 14` — result for “mean fluorescence intensity”: 107 a.u.
Under “mean fluorescence intensity”, `2'F-ANA at 1 2 7 9 10 11 12 14 15` is recorded as 55.3 a.u.
`2'F-ANA at 3 4 5 6 9 11`: “mean fluorescence intensity” 86.6 a.u.
Under “mean fluorescence intensity”, `2'F-ANA at 3 5 7 10 11 13 14 15` is recorded as 60.4 a.u.
`2'F-ANA at 4 7 9 11 14 15`: “mean fluorescence intensity” 87.3 a.u.
Under “mean fluorescence intensity”, `2'F-ANA at 6 8 9 13 14` is recorded as 208 a.u.
`2'F-ANA at 2 5 13 14`: “mean fluorescence intensity” 45.9 a.u.
For `2'F-ANA at 1 3`, “mean fluorescence intensity” read 353 a.u.
For `2'F-ANA at 1 2 5 6 7 8 13 14`, “mean fluorescence intensity” read 44 a.u.

Block 3
Target: POU, POU domain (Salpingoeca helianthica)
Technique: Spec-seq
Molecule type: double-stranded DNA, one strand shown
Matrix: in vitro
Tested at: not given
Setting: whole probe, mean of replicates
Reference: not given
Reading: lower = stronger binding
Shared flanks, not repeated: GAGTCGTCTCGTCAGCAC … CCGTAGAGCACTCAGGTC
Target sequence (chain): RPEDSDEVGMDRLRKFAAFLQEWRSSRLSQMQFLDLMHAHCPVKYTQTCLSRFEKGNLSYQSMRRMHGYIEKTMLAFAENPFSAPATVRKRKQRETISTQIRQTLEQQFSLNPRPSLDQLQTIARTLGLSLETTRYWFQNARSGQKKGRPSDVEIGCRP
Under “relative binding energy”, `TACATAAT` is recorded as 0.145 ln ratio.
`GAGCTAAT`: “relative binding energy” 0.577 ln ratio.
`ATTGCAAT`: “relative binding energy” 0.966 ln ratio.
`ATGCATGA`: “relative binding energy” 1.18 ln ratio.
For `ATTTGCAT`, “relative binding energy” read 0.716 ln ratio.
`ATGCCCTA`: “relative binding energy” 1.27 ln ratio.
Under “relative binding energy”, `ATGCTAGG` is recorded as 1.45 ln ratio.
For `TTGTTAAT`, “relative binding energy” read -0.86 ln ratio.
Under “relative binding energy”, `ATGCGAAT` is recorded as 1.45 ln ratio.
Under “relative binding energy”, `ATCCCGAT` is recorded as 1.32 ln ratio.
`GTCGTAAT`: “relative binding energy” 0.269 ln ratio.

Other studies, line by line
`PhoQ, residues 284 288 289 292 302 303 SIHLQL` gave a fold induction of 12.8 (PhoP, residues 12 14 15 18 19 SYFRT (Escherichia coli, UniProt P23836); Sort-seq, refers to: YFP reporter; E. coli; PhoQ-PhoP variant library, together with: 10 µM Mg2+; reference: high Mg2+ state, higher = stronger signaling).

A few entries again (block 1):
With `CTATTCTATAGGCATCACCTACTGCATCACCTATTCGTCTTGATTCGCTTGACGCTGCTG` the fluorescence intensity was 539 a.u.
`GAACGGGTAATAGTACACGGGATGAAGAGACTTTAGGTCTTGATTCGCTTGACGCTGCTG` gave a fluorescence intensity of 662 a.u.
